Results pooled from the literature.
Each line is one published result; not all experiments were run side by side. ± marks the error that the study gave.

SMILES	tested on	test	system	setting	scale	endpoint	value
CO[C@@H]1[C@H](O)[C@@H](COP(=O)(O)OP(=O)([S-])OP(=O)(S)OC[C@H]2O[C@@H](n3cnc4c(=O)[nH]c(N)nc43)[C@H](O)[C@@H]2O)O[C@H]1n1c[n+](C)c2c(O)nc(N)nc21 (mixture of isomers)			rabbit reticulocyte lysate		reference: m7GpppG-capped mRNA	cap-dependent translation efficiency	3.57 ± 0.95
Cc1csc(CCCNc2nc3c(c(=O)[nH]2)[n+](C)cn3C2OC(COP(=O)(O)OP(=O)([O-])OP(=O)(O)OCC3OC(n4cnc5c(=O)[nH]c(N)nc54)C(O)C3O)C(O)C2O)n1 (stereo not shown)		cap-dependent translation, inhibitor	rabbit reticulocyte lysate	concentration not given	reference: m7GpppG	relative inhibitory potency	4.8
CCCCCCCCN(CCC(=O)Nc1ccccc1)C(=O)c1ccccn1	HGPS patient fibroblasts			2 µM, 15 days	reference: untreated	senescence-associated β-galactosidase activity	decreased
C[n+]1cn(C2OC(COP(=O)(O)OP(=O)([O-])OP(=O)(O)OCC3OC(n4cnc5c(=O)[nH]c(N)nc54)C(O)C3O)C(O)C2O)c2nc(NCc3ccccc3)[nH]c(=O)c21 (stereo not shown)		cap-dependent translation	rabbit reticulocyte lysate		reference: m7GpppG-capped mRNA	relative translation efficiency	3.52 ± 0.82
CO[C@@H]1[C@H](O)[C@@H](COP(=O)(O)OP(=O)([O-])OP(=O)(O)OP(=O)(O)OC[C@H]2O[C@@H](n3cnc4c(=O)[nH]c(N)nc43)[C@H](O)[C@@H]2O)O[C@H]1n1c[n+](C)c2c(O)nc(N)nc21			rabbit reticulocyte lysate	1 h, luciferase mRNA capped with compound	reference: m7GpppG-capped mRNA	relative translation efficiency	1.77 ± 0.18
O=C(O)c1ccc(/C=C2\SC(=S)N(Cc3cccc(C(F)(F)F)c3)C2=O)cc1	mouse BMDM			concentration not given, added: cytosolic LPS		noncanonical NLRP3 activation	inhibited
C[n+]1cn(C2OC(COP(=O)(O)OP(=O)([O-])OP(=O)(O)OCC3OC(n4cnc5c(=O)[nH]c(N)nc54)C(O)C3O)C(O)C2O)c2nc(NCc3ccc(Cl)cc3)[nH]c(=O)c21 (stereo not shown)		cap-dependent translation, inhibitor	rabbit reticulocyte lysate	concentration not given	reference: m7GpppG	relative inhibitory potency	~10 fold
NS(=O)(=O)Nc1ncnc(OCCOc2ncc(Br)cn2)c1-c1ccc(Br)cc1		metabolite formation	female Sprague-Dawley rat, liver microsomes	50 mg/kg daily for 4 weeks		Vmax	166 ± 16 pmol/min/mg
COc1ccc2c(c1)C(C)(C)C(/C=C/C1=C(Oc3ccc(C(=O)NCCCCOc4cc(CN(Cc5ccccn5)Cc5ccccn5)cc(CN(Cc5ccccn5)Cc5ccccn5)c4)cc3)C(=C/C=C3/N(CCCCS(=O)(=O)[O-])c4ccc(OC)cc4C3(C)C)CCC1)=[N+]2CCCCS(=O)(=O)[O-].O=[N+]([O-])[O-].O=[N+]([O-])[O-].[99Tc+].[C-]#[O+].[C-]#[O+].[C-]#[O+].[Zn+2]	Staphylococcus aureus	bacterial binding, gamma counting		concentration not given, 10 min	reference: total	bound activity	15 ± 2.1%
CNc1ccccc1C(=O)O[C@H]1C[C@H](n2cnc3c(N)ncnc32)O[C@@H]1COP(=O)(O)OP(=O)(O)O	Unconventional myosin-Va (Gallus gallus, UniProt Q02440, D297C/G292C/I296C/S293C/V295G)	stopped-flow FRET		4 °C, added: MgCl2 10 mM		association rate constant	1.21 ± 0.07 µM⁻¹ s⁻¹
C[n+]1cn(C2OC(COP(=O)([O-])OP(=O)(O)OP(=O)(O)OCC3OC(n4cnc5c(=O)[nH]c(N)nc54)C(O)C3O)C(O)C2O)c2nc(NCc3cc(-c4ccccc4)no3)[nH]c(=O)c21 (stereo not shown)		cap-dependent translation, inhibitor	rabbit reticulocyte lysate	concentration not given	reference: m7GpppG	relative inhibitory potency	15.7 fold
CO[C@@H]1[C@H](O)[C@@H](COP(=O)([O-])OP(=O)(O)CP(=O)(O)OP(=O)(O)OC[C@H]2O[C@@H](n3cnc4c(=O)[nH]c(N)nc43)[C@H](O)[C@@H]2O)O[C@H]1n1c[n+](C)c2c(O)nc(N)nc21			rabbit reticulocyte lysate	1 h, luciferase mRNA capped with compound	reference: m7GpppG-capped mRNA	relative translation efficiency	1.39 ± 0.33
CC[C@H](C)[C@@H]1NC(=O)[C@H](Cc2cn(CCc3c(C)[nH]c4cc(Cl)cc(Cl)c34)nn2)NC(=O)[C@@H](CC(N)=O)NC(=O)[C@H](CCCNC(=N)N)NC(=O)[C@H](Cc2ccccc2)NC(=O)[C@@H](CC(C)C)NC(=O)[C@H](C)NC(=O)c2cc3cc(c2)C(=O)NC[C@@H](C(=O)N[C@@H](CCCCN)C(N)=O)NC(=O)[C@H](CCCNC(=N)N)NC(=O)[C@H](CCCNC(=N)N)NC(=O)[C@H](CCCNC(=N)N)NC(=O)[C@H](CCCNC(=N)N)NC(=O)[C@H](Cc2ccc4ccccc4c2)NC(=O)[C@H](Cc2ccccc2)NC(=O)[C@H](CCCCNC3=O)NC(=O)[C@H](CC(=O)O)NC1=O	H1299	immunostaining flow cytometry		20 µM, 6 h	reference: untreated	caspase-3 activity	1.3 fold

Excerpt of the above:
SMILES	tested on	test	system	setting	scale	endpoint	value
CO[C@@H]1[C@H](O)[C@@H](COP(=O)(O)OP(=O)([S-])OP(=O)(S)OC[C@H]2O[C@@H](n3cnc4c(=O)[nH]c(N)nc43)[C@H](O)[C@@H]2O)O[C@H]1n1c[n+](C)c2c(O)nc(N)nc21 (mixture of isomers)			rabbit reticulocyte lysate		reference: m7GpppG-capped mRNA	cap-dependent translation efficiency	3.57 ± 0.95
